Assay results collected from several papers.
Numbered parts are unrelated; each lists some results of a single study. Positions count from the first letter of the parent shown.
Sequence of UniProt O95747 (whole entry, looked up): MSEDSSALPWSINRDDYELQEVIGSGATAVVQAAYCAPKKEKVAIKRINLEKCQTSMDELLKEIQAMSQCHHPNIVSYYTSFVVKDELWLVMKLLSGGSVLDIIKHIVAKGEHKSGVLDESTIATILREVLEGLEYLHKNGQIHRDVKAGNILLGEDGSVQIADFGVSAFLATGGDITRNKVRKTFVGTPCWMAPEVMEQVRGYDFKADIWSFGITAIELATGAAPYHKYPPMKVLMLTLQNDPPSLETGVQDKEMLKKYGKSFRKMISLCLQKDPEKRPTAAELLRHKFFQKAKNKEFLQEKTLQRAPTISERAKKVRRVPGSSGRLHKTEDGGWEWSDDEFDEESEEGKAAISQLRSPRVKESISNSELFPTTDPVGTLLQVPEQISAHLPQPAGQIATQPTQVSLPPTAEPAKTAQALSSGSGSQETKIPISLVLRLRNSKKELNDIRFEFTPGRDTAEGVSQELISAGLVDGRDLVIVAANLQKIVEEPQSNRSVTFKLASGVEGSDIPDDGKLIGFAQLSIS
Sequence of UniProt Q96D53 (whole entry, looked up): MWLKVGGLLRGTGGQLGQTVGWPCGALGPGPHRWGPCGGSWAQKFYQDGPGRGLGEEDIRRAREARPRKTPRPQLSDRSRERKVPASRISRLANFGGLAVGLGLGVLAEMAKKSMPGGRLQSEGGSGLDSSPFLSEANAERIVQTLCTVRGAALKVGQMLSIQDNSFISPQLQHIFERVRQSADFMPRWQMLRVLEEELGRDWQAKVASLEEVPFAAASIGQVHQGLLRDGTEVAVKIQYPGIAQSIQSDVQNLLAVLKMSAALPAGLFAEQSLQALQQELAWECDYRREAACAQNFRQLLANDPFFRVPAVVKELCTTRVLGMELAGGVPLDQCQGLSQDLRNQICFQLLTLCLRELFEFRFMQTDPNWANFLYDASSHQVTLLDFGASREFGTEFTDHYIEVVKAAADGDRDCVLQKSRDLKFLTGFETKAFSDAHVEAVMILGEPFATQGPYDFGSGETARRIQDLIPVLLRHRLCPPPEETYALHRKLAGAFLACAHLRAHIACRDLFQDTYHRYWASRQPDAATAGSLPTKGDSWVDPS
Sequence of UniProt P51617 (whole entry, looked up): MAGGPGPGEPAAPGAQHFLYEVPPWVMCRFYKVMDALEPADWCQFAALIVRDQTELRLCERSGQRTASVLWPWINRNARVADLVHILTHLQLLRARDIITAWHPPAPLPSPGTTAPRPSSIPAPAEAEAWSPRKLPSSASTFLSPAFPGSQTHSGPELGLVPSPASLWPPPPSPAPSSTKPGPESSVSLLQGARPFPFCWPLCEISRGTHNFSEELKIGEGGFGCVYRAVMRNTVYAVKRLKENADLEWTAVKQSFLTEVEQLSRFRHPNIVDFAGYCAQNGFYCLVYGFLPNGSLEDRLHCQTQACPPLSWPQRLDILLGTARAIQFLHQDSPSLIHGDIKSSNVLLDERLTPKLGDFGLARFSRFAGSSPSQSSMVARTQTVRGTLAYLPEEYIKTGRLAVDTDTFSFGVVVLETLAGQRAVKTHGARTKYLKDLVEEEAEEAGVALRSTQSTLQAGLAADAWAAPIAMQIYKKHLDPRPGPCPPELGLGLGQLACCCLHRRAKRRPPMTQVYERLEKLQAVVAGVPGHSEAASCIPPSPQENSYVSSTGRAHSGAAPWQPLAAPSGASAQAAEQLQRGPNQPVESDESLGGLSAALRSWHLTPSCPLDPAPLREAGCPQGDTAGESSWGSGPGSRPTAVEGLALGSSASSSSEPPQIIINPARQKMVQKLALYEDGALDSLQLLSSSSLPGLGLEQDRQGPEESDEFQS
Sequence of UniProt Q9UKI8 (whole entry, looked up): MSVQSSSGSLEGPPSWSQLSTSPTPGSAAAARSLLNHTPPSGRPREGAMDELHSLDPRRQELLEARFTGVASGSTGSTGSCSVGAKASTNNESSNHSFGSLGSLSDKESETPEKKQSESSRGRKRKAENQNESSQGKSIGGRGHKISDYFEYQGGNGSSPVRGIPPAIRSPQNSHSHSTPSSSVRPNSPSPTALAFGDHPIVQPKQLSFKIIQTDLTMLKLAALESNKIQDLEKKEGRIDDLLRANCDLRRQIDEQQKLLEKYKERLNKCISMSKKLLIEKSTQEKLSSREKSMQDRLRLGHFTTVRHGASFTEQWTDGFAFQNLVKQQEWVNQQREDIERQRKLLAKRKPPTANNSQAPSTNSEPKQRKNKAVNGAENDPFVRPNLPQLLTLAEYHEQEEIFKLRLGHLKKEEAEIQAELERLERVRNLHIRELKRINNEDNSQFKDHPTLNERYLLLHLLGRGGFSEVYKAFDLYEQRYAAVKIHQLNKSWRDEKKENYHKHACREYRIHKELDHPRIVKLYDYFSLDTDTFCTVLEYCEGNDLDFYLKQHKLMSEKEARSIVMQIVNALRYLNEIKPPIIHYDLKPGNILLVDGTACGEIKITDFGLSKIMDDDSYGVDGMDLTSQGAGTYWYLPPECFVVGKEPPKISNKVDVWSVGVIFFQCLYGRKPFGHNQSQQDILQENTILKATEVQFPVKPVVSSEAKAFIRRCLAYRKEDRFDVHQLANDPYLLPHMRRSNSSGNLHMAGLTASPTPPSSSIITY
Sequence of UniProt P04629 (whole entry, looked up): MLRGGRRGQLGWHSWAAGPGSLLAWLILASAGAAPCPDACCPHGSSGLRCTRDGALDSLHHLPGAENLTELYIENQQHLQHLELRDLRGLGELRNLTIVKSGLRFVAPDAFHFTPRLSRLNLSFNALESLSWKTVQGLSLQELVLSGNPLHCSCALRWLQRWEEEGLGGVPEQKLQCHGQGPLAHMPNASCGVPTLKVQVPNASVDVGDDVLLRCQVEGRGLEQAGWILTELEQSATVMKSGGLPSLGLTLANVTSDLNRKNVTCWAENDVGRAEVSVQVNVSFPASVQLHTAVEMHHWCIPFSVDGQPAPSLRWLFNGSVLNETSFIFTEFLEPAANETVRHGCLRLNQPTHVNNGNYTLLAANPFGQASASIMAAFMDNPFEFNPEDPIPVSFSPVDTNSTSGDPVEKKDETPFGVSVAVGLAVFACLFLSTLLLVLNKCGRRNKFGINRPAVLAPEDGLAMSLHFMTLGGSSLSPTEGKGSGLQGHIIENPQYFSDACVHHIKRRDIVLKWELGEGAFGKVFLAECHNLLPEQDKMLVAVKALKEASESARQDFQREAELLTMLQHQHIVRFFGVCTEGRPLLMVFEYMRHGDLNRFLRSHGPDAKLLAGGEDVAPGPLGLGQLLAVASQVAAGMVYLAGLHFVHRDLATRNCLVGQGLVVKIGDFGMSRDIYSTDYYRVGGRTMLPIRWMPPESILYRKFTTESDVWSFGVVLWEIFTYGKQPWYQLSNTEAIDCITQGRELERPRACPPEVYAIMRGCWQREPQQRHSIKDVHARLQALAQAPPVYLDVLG

Set 1
Target: Ephrin type-B receptor 2 (EPHB2, Homo sapiens, UniProt P29323)
Effect on: enzyme activity
Action: inhibitor
Concentration: 0.5 µM
Baseline: control
| SMILES | remaining activity |
| --- | --- |
| NCCNc1ncc(C(N)=O)c(Nc2cccc(C(F)(F)F)c2)n1 | 98.5% |
| Cn1c2ccccc2c2c3c(c4c5ccccc5n(CCC#N)c4c21)CNC3=O | 77.7% |
| N#CC(C#N)=C(N)/C(C#N)=C/c1ccc(O)cc1 | 97.1% |
| O=S(=O)(c1cccc2cnccc12)N1CCCNCC1 | 83.2% |
| Cc1cccc(-c2[nH]c(C(C)(C)C)nc2-c2ccc3c(c2)OCO3)n1 | 93% |
| COc1ccc(C(=O)Nc2sc3c(c2C(N)=O)CCCC3)cc1OC | 73.5% |
| CNC(=O)c1cc(Oc2ccc(NC(=O)Nc3ccc(Cl)c(C(F)(F)F)c3)cc2)ccn1 | 93.2% |
| O=C1NC(=O)C(c2cn(CCCn3ccnc3)c3ccccc23)=C1Nc1ccccc1 | 98.4% |
| Cn1sc(=O)n(Cc2ccccc2)c1=O | 88.5% |
| O=C(CCCc1ccc(-c2ccccc2F)cc1)Nc1ccc(O)cc1 | 98.5% |
| O=C(O)c1ccc2c3c1cccc3c(=O)n1c3ccccc3nc21 | 104% |
| Cc1ccc(Nc2nccc(N(C)c3ccc4c(C)n(C)nc4c3)n2)cc1S(N)(=O)=O | 91.9% |
| COc1ccc(CNC(=O)Nc2ncc([N+](=O)[O-])s2)cc1 | 88.4% |
| CC(C)[C@H](CO)Nc1nc(Nc2cc(N)cc(Cl)c2)c2ncn(C(C)C)c2n1 | 73.6% |

Set 2
Target: CCNE2, cyclin fold, Cln2 fusion (human)
Method: yeast growth competition, sequencing
Medium: yeast
Notes: weak parent motif
Baseline: not given
Direction: higher = stronger binding
Parent: DBF4 docking peptide (human); DDIVSKLVFDFVE; partner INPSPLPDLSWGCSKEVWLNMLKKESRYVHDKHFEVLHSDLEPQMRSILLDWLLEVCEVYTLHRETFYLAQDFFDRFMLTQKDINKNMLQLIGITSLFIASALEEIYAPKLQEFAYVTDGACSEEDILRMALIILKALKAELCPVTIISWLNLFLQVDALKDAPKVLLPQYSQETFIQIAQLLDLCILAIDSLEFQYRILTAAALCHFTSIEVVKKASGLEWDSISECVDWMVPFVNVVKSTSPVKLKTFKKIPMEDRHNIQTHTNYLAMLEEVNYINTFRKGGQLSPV
| Change | normalised enrichment score |
| --- | --- |
| V12A | -0.107 |
| D1A | -0.0704 |
| E13A | -0.0023 |
| V8A | -0.0383 |
| S5A | -0.213 |
| D10A | -0.311 |
| I3A | -0.0172 |

Set 3
Compound: CN([C@@H]1CCc2c(CC(=O)O)c3ccccc3n2C1)S(=O)(=O)c1ccc(F)cc1
Effect on: cell-free assay
Method: competition with immobilised ligand
Concentration: 1 µM
| target | remaining binding [%] |
| --- | --- |
| Interleukin-1 receptor-associated kinase 1 (IRAK1, Homo sapiens, UniProt P51617) | 78 |
| Serine/threonine-protein kinase tousled-like 1 (TLK1, Homo sapiens, UniProt Q9UKI8) | 100 |
| Serine/threonine-protein kinase OSR1 (OXSR1, Homo sapiens, UniProt O95747) | 100 |
| High affinity nerve growth factor receptor (NTRK1, Homo sapiens, UniProt P04629) | 100 |
| Atypical kinase COQ8B, mitochondrial (COQ8B, Homo sapiens, UniProt Q96D53) | 100 |

Set 4
Target: Transcription factor SOX-2, HMG box (SOX2, Homo sapiens, UniProt P48431, residues 19-118)
Sequence of UniProt P48431 (19-118, looked up): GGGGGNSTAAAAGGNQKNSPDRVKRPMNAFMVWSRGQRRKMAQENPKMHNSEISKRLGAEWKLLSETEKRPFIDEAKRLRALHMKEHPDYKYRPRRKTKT
Method: protein-binding microarray
Molecule type: double-stranded DNA, one strand shown
Medium: in vitro
Concentration: not given
Notes: k-mer, scored over probes, only values ≥0.25
Direction: higher = stronger binding
| Sequence | E-score |
| --- | --- |
| AATGGAA | 0.308 |
| ATACAAT | 0.458 |
| ATTGAAG | 0.28 |
| GACAATA | 0.445 |
| AACAAAG | 0.399 |
| ATTTATC | 0.312 |
| AAATTGT | 0.407 |
| ATGAATA | 0.448 |
